{"data": "Experimental data gathered from unrelated publications", "note": "Numbered parts are unrelated; each lists some results of a single study. Changes are numbered by the printed parent chain.", "chain of UniProt Q96GD4 (whole entry, looked up)": "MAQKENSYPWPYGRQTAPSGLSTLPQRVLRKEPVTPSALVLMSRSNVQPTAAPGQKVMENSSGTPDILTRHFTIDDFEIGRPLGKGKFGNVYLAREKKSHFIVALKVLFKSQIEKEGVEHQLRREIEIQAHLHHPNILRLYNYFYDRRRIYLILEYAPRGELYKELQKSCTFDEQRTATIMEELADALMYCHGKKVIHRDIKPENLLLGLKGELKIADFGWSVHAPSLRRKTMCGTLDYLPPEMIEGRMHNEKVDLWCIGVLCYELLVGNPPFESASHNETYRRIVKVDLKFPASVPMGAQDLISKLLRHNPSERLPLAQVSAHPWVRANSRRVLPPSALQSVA", "chain of UniProt P23458 (whole entry, looked up)": "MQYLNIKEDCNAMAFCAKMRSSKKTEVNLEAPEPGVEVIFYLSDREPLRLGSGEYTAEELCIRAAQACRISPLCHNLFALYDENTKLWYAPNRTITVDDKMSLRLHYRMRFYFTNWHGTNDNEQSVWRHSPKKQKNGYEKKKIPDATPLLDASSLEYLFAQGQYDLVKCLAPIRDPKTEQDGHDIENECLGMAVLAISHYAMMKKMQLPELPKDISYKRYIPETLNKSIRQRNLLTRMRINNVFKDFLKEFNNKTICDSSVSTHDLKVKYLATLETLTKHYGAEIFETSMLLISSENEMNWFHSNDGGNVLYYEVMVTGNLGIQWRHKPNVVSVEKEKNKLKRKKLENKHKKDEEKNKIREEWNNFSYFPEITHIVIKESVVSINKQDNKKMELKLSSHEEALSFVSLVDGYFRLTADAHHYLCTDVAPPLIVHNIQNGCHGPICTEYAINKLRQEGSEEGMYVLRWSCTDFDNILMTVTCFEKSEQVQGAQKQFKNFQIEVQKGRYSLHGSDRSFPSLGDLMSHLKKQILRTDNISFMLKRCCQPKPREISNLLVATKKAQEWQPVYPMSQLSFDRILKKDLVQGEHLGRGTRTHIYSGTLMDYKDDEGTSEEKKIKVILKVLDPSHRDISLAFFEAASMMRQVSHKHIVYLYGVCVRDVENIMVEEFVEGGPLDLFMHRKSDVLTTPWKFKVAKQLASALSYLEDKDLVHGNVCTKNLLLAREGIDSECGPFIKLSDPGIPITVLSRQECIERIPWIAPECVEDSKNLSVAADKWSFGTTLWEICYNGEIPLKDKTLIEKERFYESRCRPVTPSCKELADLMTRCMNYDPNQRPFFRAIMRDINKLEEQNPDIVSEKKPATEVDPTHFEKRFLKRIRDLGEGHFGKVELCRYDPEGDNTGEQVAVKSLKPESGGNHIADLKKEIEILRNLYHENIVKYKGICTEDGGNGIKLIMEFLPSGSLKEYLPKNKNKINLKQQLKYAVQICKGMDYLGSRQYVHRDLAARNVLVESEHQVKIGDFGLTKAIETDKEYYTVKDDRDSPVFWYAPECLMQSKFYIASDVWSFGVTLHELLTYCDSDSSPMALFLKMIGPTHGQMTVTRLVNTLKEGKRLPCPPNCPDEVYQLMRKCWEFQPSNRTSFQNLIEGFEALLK", "chain of UniProt Q14012 (whole entry, looked up)": "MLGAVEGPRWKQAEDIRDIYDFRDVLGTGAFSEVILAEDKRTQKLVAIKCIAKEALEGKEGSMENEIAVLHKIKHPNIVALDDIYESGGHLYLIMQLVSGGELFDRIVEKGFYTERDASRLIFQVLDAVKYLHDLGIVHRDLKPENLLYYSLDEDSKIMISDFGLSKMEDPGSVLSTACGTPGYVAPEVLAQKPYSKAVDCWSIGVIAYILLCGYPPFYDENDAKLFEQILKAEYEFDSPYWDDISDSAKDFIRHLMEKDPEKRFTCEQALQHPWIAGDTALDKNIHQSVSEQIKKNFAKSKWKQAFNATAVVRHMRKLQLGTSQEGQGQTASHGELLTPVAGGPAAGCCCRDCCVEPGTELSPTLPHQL", "chain of UniProt Q9UBS0 (whole entry, looked up)": "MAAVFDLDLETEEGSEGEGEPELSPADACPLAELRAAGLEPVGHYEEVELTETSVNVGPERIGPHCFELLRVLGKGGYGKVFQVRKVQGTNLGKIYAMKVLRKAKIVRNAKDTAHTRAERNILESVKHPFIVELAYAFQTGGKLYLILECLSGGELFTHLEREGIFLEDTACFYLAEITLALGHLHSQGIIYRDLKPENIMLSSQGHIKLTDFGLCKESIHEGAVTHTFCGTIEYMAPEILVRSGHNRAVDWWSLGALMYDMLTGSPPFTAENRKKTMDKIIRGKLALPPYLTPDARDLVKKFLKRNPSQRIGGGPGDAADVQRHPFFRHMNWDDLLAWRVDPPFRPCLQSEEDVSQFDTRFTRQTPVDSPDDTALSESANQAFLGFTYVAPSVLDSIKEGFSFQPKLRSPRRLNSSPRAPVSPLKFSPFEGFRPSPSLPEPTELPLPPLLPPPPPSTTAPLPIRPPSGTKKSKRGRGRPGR", "chain of UniProt P07332 (whole entry, looked up)": "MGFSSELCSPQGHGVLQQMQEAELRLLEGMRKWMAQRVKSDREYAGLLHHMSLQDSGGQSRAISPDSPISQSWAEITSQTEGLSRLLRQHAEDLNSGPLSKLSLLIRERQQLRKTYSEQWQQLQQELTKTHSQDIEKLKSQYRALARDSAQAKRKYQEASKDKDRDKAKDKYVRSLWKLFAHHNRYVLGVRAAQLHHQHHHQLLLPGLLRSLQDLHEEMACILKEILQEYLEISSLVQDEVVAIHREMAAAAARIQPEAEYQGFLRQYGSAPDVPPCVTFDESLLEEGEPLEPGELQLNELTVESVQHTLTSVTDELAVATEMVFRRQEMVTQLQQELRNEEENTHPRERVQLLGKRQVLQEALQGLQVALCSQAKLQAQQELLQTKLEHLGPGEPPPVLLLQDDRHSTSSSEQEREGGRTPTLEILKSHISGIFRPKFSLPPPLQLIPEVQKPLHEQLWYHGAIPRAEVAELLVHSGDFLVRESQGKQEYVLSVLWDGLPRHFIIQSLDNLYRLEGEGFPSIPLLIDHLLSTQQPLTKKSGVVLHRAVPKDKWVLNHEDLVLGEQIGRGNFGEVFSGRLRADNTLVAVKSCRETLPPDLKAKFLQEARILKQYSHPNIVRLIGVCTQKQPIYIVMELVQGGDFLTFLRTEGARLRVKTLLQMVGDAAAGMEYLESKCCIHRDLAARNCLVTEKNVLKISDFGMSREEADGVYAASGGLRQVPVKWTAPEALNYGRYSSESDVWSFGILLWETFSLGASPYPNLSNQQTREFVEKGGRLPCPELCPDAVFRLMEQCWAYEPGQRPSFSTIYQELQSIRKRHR", "chain of UniProt Q9P0L2 (whole entry, looked up)": "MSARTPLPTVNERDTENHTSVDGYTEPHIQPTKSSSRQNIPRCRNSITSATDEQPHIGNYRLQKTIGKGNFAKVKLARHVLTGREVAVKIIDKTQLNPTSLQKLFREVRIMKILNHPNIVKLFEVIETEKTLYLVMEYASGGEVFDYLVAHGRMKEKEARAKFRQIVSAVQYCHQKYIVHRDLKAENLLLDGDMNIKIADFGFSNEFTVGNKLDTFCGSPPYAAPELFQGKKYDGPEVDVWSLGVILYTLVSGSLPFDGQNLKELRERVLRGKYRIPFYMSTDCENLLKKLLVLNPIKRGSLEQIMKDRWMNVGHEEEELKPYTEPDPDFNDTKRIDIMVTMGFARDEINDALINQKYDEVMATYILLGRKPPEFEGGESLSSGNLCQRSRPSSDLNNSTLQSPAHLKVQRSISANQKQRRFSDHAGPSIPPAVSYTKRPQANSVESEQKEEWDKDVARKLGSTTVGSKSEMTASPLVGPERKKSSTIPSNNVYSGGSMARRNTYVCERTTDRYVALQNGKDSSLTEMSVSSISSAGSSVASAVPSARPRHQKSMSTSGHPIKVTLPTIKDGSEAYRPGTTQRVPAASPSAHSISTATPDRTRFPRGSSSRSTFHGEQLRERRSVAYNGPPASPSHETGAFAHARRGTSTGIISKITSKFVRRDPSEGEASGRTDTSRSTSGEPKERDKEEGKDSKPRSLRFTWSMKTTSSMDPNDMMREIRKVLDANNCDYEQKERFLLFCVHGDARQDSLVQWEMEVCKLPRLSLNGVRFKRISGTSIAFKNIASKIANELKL", "chain of UniProt Q96RR4 (whole entry, looked up)": "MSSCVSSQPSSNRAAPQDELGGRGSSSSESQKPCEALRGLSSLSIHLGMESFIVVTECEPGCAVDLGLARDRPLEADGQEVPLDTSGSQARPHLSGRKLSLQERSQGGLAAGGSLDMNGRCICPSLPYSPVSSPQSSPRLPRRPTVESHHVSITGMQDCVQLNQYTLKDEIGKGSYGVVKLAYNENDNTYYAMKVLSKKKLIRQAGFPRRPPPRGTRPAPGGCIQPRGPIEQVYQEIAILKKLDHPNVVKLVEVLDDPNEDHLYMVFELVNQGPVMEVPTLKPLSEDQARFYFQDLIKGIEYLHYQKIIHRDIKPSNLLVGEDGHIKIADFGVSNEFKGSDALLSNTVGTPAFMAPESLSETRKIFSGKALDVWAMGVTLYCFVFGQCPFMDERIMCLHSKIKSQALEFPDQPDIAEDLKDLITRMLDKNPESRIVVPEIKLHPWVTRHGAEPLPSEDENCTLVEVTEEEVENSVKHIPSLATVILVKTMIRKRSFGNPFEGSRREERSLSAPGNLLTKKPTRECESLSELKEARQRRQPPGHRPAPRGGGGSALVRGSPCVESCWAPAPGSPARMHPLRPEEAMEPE", "chain of UniProt Q9HC98 (whole entry, looked up)": "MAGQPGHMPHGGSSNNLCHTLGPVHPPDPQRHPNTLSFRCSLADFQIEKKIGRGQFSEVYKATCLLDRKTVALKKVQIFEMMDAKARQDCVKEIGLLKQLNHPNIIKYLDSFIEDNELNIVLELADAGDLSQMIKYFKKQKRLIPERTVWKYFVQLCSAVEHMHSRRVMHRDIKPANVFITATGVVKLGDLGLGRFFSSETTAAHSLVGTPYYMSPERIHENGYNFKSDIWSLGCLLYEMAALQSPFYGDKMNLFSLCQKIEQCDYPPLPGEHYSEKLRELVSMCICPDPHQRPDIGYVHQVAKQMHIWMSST"}
{"data": "Block 1", "Structure (SMILES)": "CC(C)c1nn(-c2c(Cl)cccc2Cl)c2nc(Cc3ccc(OCCO)cc3)[nH]c(=O)c12", "observed": "enzyme activity", "action": "inhibitor", "tested at": "0.5 µM", "relative to": "control"}
{"target": "Tyrosine-protein kinase Fes/Fps (FES, Homo sapiens, UniProt P07332)", "remaining activity [%]": 97}
{"target": "Dual specificity tyrosine-phosphorylation-regulated kinase 1A (DYRK1A, Homo sapiens, UniProt Q13627)", "remaining activity [%]": 105}
{"target": "Dual specificity protein kinase CLK2 (CLK2, Homo sapiens, UniProt P49760)", "remaining activity [%]": 44}
{"target": "Ephrin type-A receptor 2 (EPHA2, Homo sapiens, UniProt P29317)", "remaining activity [%]": 100}
{"target": "Calcium/calmodulin-dependent protein kinase type 1 (CAMK1, Homo sapiens, UniProt Q14012)", "remaining activity [%]": 85.1}
{"target": "Serine/threonine-protein kinase pim-1 (PIM1, Homo sapiens, UniProt P11309)", "remaining activity [%]": 99}
{"target": "Serine/threonine-protein kinase PAK 6 (PAK6, Homo sapiens, UniProt Q9NQU5)", "remaining activity [%]": 102}
{"target": "Serine/threonine-protein kinase PAK 1 (PAK1, Homo sapiens, UniProt Q13153)", "remaining activity [%]": 89.7}
{"target": "Tyrosine-protein kinase JAK1 (JAK1, Homo sapiens, UniProt P23458)", "remaining activity [%]": 101}
{"target": "Activin receptor type-1-like (ACVRL1, Homo sapiens, UniProt P37023)", "remaining activity [%]": 103}
{"target": "Ribosomal protein S6 kinase beta-2 (RPS6KB2, Homo sapiens, UniProt Q9UBS0)", "remaining activity [%]": 106}
{"target": "Serine/threonine-protein kinase MARK1 (MARK1, Homo sapiens, UniProt Q9P0L2)", "remaining activity [%]": 93.3}
{"target": "Tyrosine-protein kinase Yes (YES1, Homo sapiens, UniProt P07947)", "remaining activity [%]": 86.3}
{"data": "Block 2", "Compound": "O=C1NC(c2ccccn2)Sc2ccccc21 (stereo not shown)", "observed": "cell-free assay", "technique": "competition with immobilised ligand", "tested at": "1 µM"}
{"target": "Epidermal growth factor receptor (EGFR, Homo sapiens, UniProt P00533, del747-752/P753S)", "remaining binding": "100%"}
{"target": "Calcium/calmodulin-dependent protein kinase kinase 2 (CAMKK2, Homo sapiens, UniProt Q96RR4)", "remaining binding": "95%"}
{"target": "Aurora kinase B (AURKB, Homo sapiens, UniProt Q96GD4)", "remaining binding": "100%"}
{"target": "MAP kinase-activated protein kinase 2 (MAPKAPK2, Homo sapiens, UniProt P49137)", "remaining binding": "100%"}
{"target": "Serine/threonine-protein kinase Nek6 (NEK6, Homo sapiens, UniProt Q9HC98)", "remaining binding": "84%"}
{"data": "Block 3", "target": "ABI1, truncated, D143A, DHFR fusion (Arabidopsis thaliana, UniProt P49597)", "technique": "DHFR PCA, dose-response", "sample": "yeast", "notes": "Hill fit, mean, not affinity", "together with": "(+)-ABA, dose series", "reading": "lower = more sensitive", "starting sequence": "PYL1, truncated, DHFR fusion (Arabidopsis thaliana, UniProt Q8VZS8); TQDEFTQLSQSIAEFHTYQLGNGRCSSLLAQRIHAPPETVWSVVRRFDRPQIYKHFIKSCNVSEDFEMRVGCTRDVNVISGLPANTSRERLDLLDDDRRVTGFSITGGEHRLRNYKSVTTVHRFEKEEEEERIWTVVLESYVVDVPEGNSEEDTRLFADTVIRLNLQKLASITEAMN"}
{"Change": "Q167A", "ABA EC50": "0.968 µM"}
{"Change": "D48E", "ABA EC50": "9.89 µM"}
{"Change": "T1Q", "ABA EC50": "2.83 µM"}
{"Change": "G71D", "ABA EC50": "81.3 µM"}
{"Change": "F66W", "ABA EC50": "3.81 µM"}
{"Change": "T106Q", "ABA EC50": "9.16 µM"}
{"Change": "E67R", "ABA EC50": "3.28 µM"}
{"Change": "E127H", "ABA EC50": "3.14 µM"}
{"data": "Block 4", "target": "Phosphate system positive regulatory protein PHO4, full length, GST-tagged (PHO4, Saccharomyces cerevisiae, UniProt P07270, residues 1-312)", "technique": "competition protein-binding microarray", "molecule type": "double-stranded DNA, one strand shown", "sample": "in vitro", "tested at": "2 µM", "notes": "whole 60-bp probe, lowest competitor level", "together with": "Cbf1 competitor, 0.05 µM", "reading": "higher = stronger binding", "constant ends, left off below": "… GTCTTGATTCGCTTGACGCTGCTG", "Construct (chain)": "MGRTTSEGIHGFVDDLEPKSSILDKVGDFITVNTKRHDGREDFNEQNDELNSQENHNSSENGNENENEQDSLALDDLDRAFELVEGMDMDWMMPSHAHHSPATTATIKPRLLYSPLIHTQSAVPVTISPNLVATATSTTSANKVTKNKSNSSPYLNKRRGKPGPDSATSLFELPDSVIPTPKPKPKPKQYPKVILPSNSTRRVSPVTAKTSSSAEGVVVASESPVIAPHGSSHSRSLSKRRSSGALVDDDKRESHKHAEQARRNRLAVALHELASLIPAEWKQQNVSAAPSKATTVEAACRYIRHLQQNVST"}
{"Strand": "CTTTCCCGATCTTGACTGGTGGGTGTAGCACATTTG", "fluorescence intensity": "4640 a.u."}
{"Strand": "AGATACAAAGTGTCCCACGGGCCAGTTTTGGCTTTA", "fluorescence intensity": "8430 a.u."}
{"Strand": "CTAACGAAGGTTTGTGTAGTGGGTGACAAGCCAAGT", "fluorescence intensity": "3980 a.u."}
{"Strand": "AAATTACTAAGTTGGCATGTGGGTGACGCCGTATGA", "fluorescence intensity": "11100 a.u."}
{"Strand": "GTTTAGTTTTCCAATCACGATACTGTTTGGCCATAC", "fluorescence intensity": "5230 a.u."}
{"Strand": "CTAACGAAGGTTTGGGTAGTGGGTGACAAGCCAAGT", "fluorescence intensity": "4060 a.u."}
{"Strand": "TGCGCAACAACTTGCAGGGTGGGTGTATGTCTAGAA", "fluorescence intensity": "5060 a.u."}
{"Strand": "CGTCCTAGTGATTGTCACTGCACTTCCATGAGGAAG", "fluorescence intensity": "4600 a.u."}
{"note": "Excerpt of the above (block 3):"}
{"Change": "T106Q", "ABA EC50": "9.16 µM"}
{"Change": "T1Q", "ABA EC50": "2.83 µM"}
{"Change": "G71D", "ABA EC50": "81.3 µM"}
